Measurements gathered from unrelated publications.
Protocols differ between the studies behind these lines. ± marks the error that the study gave. Values after ≈ are worked out from the molar mass of the structure shown.

Substance | assay | system | conditions | how to read | quantity | value
C[C@H](CS)C(=O)N1CCC[C@H]1C(=O)O |  | male Hartley guinea pig, anaesthetized | intravenous infusion, 10 mg/kg, 10 min infusion | baseline: baseline | QTc change | -1.3 ± 1.4%
C[C@H](Oc1ccc(-c2nc(-c3ccc4[nH]cnc4c3)no2)cc1C(F)(F)F)C(F)(F)F |  | cynomolgus monkey, aneurysm model, plasma | 0.1 mg/kg once daily, 1 h post-dose, 3 months dosing |  | plasma concentration | 9.3 ± 2.2 nM
O=C(O)C[C@H](O)C[C@H](O)/C=C/c1c(C2CC2)nc2ccccc2c1-c1ccc(F)cc1 |  | male Sprague Dawley rat, control, plasma | oral, 2.5 mg/kg, geometric mean, together with: silymarin 500 mg/kg oral |  | AUC(0-27 h) | 5.7 µM·h
CCOc1ccc(Cc2cc([C@@H]3S[C@H](CO)[C@@H](O)[C@H](O)[C@H]3O)c(OC)cc2C)cc1 |  | human | oral, 5 mg/day, day 1, before breakfast |  | Vd/F | 40.3 ± 6.67 L
CCCC(C)N1CCC(N(Cc2ccccc2)C(=O)Nc2cc(F)cc(C(F)(F)F)c2)CC1 (centres unmarked) |  | CD-1 female mouse, liver microsomes | 0.8 µM |  | intrinsic clearance | 290 mL/min/kg
Cc1cc(-c2cc(OC(=O)c3ccccc3)ccc2Cl)cc2nnc(Nc3ccc(OCCN4CCCC4)cc3)nc12 |  | Long Evans rat, sclera/choroid | topical, 1%, 24 h |  | concentration | 843 nM
CC(C)(Oc1ccc(CCNC(=O)c2ccc(Cl)cc2)cc1)C(=O)O | shake-flask | soybean oil | 37 °C |  | thermodynamic solubility | ≤ 0.2 mg/g
CC(C)=CCc1c(O)cc2oc3c(CC=C(C)C)c(O)c(O)c(CC=C(C)C)c3c(=O)c2c1O |  | Balb/c nu/nu mice, HT-29 xenograft, tumour tissue | oral, 901 mg/kg xanthones in diet, 4 weeks after implantation |  | free tumour concentration | 140 ± 50 ng/g
O=C(NC1CCNCC1)c1[nH]ncc1NC(=O)c1c(Cl)cccc1Cl | shake flask | water | pH 6.5 |  | thermodynamic solubility | 1520 µg/mL (≈ 3990 µM)
N=S(=O)(c1ccccc1)N1CCCCC1 (centres unmarked) | HPLC |  | pH 7.5 |  | chromatographic logD | 1.9
Cc1cc(Nc2cc3ncccc3c(N[C@@H]3C[C@H]4CC[C@@H](C3)N4CCC#N)n2)n[nH]1 |  | dog, male, plasma | oral, 100 mg/kg/day, week 28 day 197, 39-week repeat dose | mean | AUC(0-24 h) | 1670 ng·h/mL
CNCc1ccc(-c2[nH]c3cc(F)cc4c3c2CCNC4=O)cc1 |  | human patients, plasma | oral, 300 mg once daily, day 15, steady state, arithmetic mean |  | half-life | 29.8 h
CCCSc1ccc2nc(NC(=O)OC)[nH]c2c1 |  | PBS | 24 h, pH 7.4, room temperature |  | thermodynamic solubility | < 1 µg/mL
O=C1N=C(N2CCOCC2)CN1c1ccc(Cl)cc1 |  | beagle dog, male, plasma | oral, 30 mg/kg, tablets, fasted |  | apparent oral clearance | 5.48 mL/min/kg
NC(=O)CC[C@@H]1NC(=O)[C@H](Cc2ccccc2)NC(=O)[C@H](Cc2ccc(O)cc2)NC(=O)CCSSC[C@@H](C(=O)N2CCC[C@H]2C(=O)N[C@H](CCCN=C(N)N)C(=O)NCC(N)=O)NC(=O)[C@H](CC(N)=O)NC1=O | UPLC-MS/MS | human plasma | 156.23 pg/mL, 6 h, room temperature |  | bench top stability | 93.8%
COC(=O)N[C@H](C(=O)N1CCC[C@H]1c1nc(-c2ccc(-c3ccc(-c4c[nH]c([C@@H]5CCCN5C(=O)[C@@H](NC(=O)OC)C(C)C)n4)cc3)cc2)c[nH]1)C(C)C |  | Caco-2 |  |  | Papp A→B | 3.3 ×10⁻⁶ cm/s
IDKQLE | substrate, gel electrophoresis | peptide, mouse, PyMT tumour, PyMT tumour tissue extract | 5 µM, 16 h, 37 °C, 2% extract, 1 mM ZnCl2 |  | peptide cleavage | < 5%
C[C@](N)(Cc1ccc(O)c(O)c1)C(=O)O |  | supercritical carbon dioxide | 5 h, 313 K, 27 MPa, density 893.5 kg/m3 |  | solubility | 271 µg/mL (≈ 1280 µM)
COc1cc(OC)c(/C=C/S(=O)(=O)Cc2ccc(OC)c(NCC(=O)O)c2)c(OC)c1 |  | cancer patients, phase I, plasma | oral, 700 mg twice daily, day 1 cycle 1 |  | AUC(0-inf) | 19600 ± 23000 ng·h/mL
[2H]C([2H])([2H])Oc1cc2c(cc1OC([2H])([2H])[2H])C1CC(=O)C(CC(C)C)CN1CC2 (centres unmarked) | refers to: deuterated α-HTBZ | healthy human volunteers, plasma | oral, 12 mg single dose, standard meal |  | dose-normalized AUC(0-t) | 16 ng·h/mL
CCC(C)n1ncn(-c2ccc(N3CCN(c4ccc(OCC5COC(Cn6cncn6)(c6ccc(Cl)cc6Cl)O5)cc4)CC3)cc2)c1=O (centres unmarked) | shake-flask | PEG400 | 37 °C |  | thermodynamic solubility | 2.47 ± 0.08 mg/g
COc1cc(N)c(Cl)cc1C(=O)NC1CCN(CCCOc2ccc(F)cc2)CC1OC (centres unmarked) |  | male Hartley guinea pig, anaesthetized | intravenous infusion, 1 mg/kg, 10 min infusion | baseline: baseline | QTc change | 18.2 ± 1.9%
OCCN(CCO)c1nc(N2CCCCC2)c2nc(N(CCO)CCO)nc(N3CCCCC3)c2n1 | shake-flask | soybean oil | 37 °C |  | thermodynamic solubility | 0.07 ± 0.01 mg/g
CC(C)NC[C@@H](C(=O)N1CCN(c2ncnc3c2[C@H](C)C[C@H]3O)CC1)c1ccc(Cl)cc1 |  | human, Severe hepatic function, plasma | oral, 100 mg single dose, NCI classification, geometric mean |  | AUC(0-72 h) | 627 ng·h/mL
N[C@@H](CC(=O)N1CCn2c(nnc2C(F)(F)F)C1)Cc1cc(F)c(F)cc1F |  | healthy Korean subjects, plasma | oral, 100 mg single dose, ABCB1 G2677T/A TT |  | AUC(0-2 h) | 507 ± 263 ng·h/mL
CS(=O)(=O)OC[C@H](O)[C@@H]1CO1 |  | Wistar rat, male, plasma | intraperitoneal, 500 mg/kg of treosulfan, 4 h |  | concentration | 8000 nM
CCCOc1ccc([C@H]2CNC(=O)N2c2ccc3[nH]cnc3c2)cc1 |  | human, plasma | oral, 200 mg, single dose, fasted |  | Tmax | 0.5 h

Substance | assay | system | conditions | how to read | quantity | value
CC(C)(C)NC(=O)[C@@H]1C[C@@H]2CCCC[C@@H]2CN1C[C@@H](O)[C@H](Cc1ccccc1)NC(=O)[C@H](CC(N)=O)NC(=O)c1ccc2ccccc2n1 | shake-flask | polysorbate 80 | 37 °C |  | thermodynamic solubility | 48.9 ± 2.15 mg/g
Cc1nc2cccc(OCC(C)(C)C(=O)NC(C)C)c2c(N)c1C(=O)O |  | Sprague-Dawley rat (both sexes), plasma | dietary, 30 to 100 mg/kg/day, day 90 |  | Tmax range | 1.5 to 7.5 h
Clc1ccccc1C(c1ccccc1)(c1ccccc1)n1ccnc1 | shake-flask | polysorbate 80 | 37 °C |  | thermodynamic solubility | 51.1 ± 3.18 mg/g
CCOc1ccc(C[C@@H](CN(CCN(CC(=O)[O-])CC(=O)[O-])CC(=O)[O-])N(CC(=O)[O-])CC(=O)[O-])cc1.[Gd+3].[H+].[H+] | biliary efflux, DCE-MRI | rat | intravenous, 25 µmol/kg |  | Km | 587 ± 15.4 µM
CNc1nc(Nc2ccc(-n3cnc(C)n3)c(OC)c2)nc2c1CC[C@H]2c1ccc(F)cc1 |  | human, plasma | oral, 300 mg, single dose, fed, healthy volunteers |  | AUC(0-inf) | 20400 ng·h/mL
COc1cc(F)c(F)c(Nc2ccc(I)cc2F)c1NS(=O)(=O)C1(C[C@H](O)CO)CC1 |  | human patients, plasma | oral, 50 mg twice daily, cycle 1 day 15, together with: copanlisib 0.4 mg/kg intravenous weekly |  | AUC(0-8 h) | 6170 ng·h/mL
Cc1c(Cl)cccc1Nc1ccccc1C(=O)O | shake-flask | PEG400 | 37 °C |  | thermodynamic solubility | 46.8 ± 7 mg/g
CS/C(S)=N/CCCC[S+](C)[O-] (racemic) | RT-PCR, refers to: Cyp2b3 | rat, colon | oral gavage, 200 mg/kg, dosed for four days | baseline: vehicle | mRNA fold change | 0.992
CC(C)[C@H](NC(=O)[C@@H]1CCCN1C(=O)[C@H](CCCNC(=N)N)NC(=O)[C@H](CS)NC(=O)[C@H](Cc1c[nH]c2ccccc12)NC(=O)[C@H](CCCNC(=N)N)NC(=O)[C@@H](Cc1ccccc1)NC(=O)[C@H](Cc1c[nH]cn1)NC(=O)[C@H](CCC(=O)O)NC(=O)[C@H](CS)NC(=O)[C@H](CS)NC(=O)[C@H](CCCCN)NC(=O)[C@@H]1CC(=O)N[C@@H](CCCNC(=N)N)C(=O)N[C@@H](C(C)C)C(=O)N[C@@H](CC(=O)O)C(=O)N[C@H](Cc2ccc(O)cc2)C(=O)N1)C(N)=O [technetium-99m labelled] |  | C57 mouse, female, B16/F1 melanoma, pancreas | intravenous, 2 h, together with: NDP-MSH 10 µg co-injected |  | tissue uptake | 0.06 ± 0.03 %ID/g
C=CC(N)CCC(=O)O (centres unmarked) |  | male Sprague-Dawley rat, plasma | oral, 10 mg/kg, formulation 9, together with: low-fat infant formula 1500 mg/kg |  | fraction absorbed | 68 ± 1%
des-acyl ghrelin (human) |  | Ghsr knockout mice, olfactory bulb | intravenous, dose not given, 10 min, vascular space corrected |  | tissue/serum ratio | 15.9 µL/g
CCCC[C@@H]1NC(=O)[C@@H](NC(=O)[C@H](CCC(=O)O)NC(=O)CNC(=O)CN2CCN(CC(=O)O)CCN(CC(=O)O)CCN(CC(=O)O)CC2)CCCCNC(=O)C[C@@H](C(N)=O)NC(=O)[C@H](C(C)C)NC(=O)[C@@H]2CCCN2C(=O)[C@H](CCCNC(=N)N)NC(=O)CNC(=O)[C@H](Cc2c[nH]c3ccccc23)NC(=O)[C@H](CCCNC(=N)N)NC(=O)[C@@H](Cc2ccccc2)NC(=O)[C@H](Cc2c[nH]cn2)NC(=O)[C@H](CCC(=O)O)NC1=O [indium-111 labelled] |  | C57 mice, B16/F10 lung metastatic melanoma, liver | intravenous, 0.037 MBq, 24 h |  | tissue uptake | 0.13 ± 0.02 %ID/g
acyl ghrelin (human) |  | Ghsr knockout mice, whole brain | intravenous, dose not given, 10 min, vascular space corrected |  | tissue/serum ratio | 5.48 µL/g
O=C(/C=C\c1ccc(O)c(O)c1)Nc1ccc(S(=O)(=O)Nc2ncccn2)cc1 |  | n-octanol/PBS | pH 7.4 |  | log P | > 0.5
C[C@]12CC[C@@H]3c4ccc(O)cc4CC[C@H]3[C@@H]1C[C@@H](O)[C@@H]2O | GC-MS | breast cancer women on NSAI, serum | vaginal, 0.03 mg, 0.5 h, day 0 |  | mean serum concentration | 3.83 pg/mL
C[C@@H](O)[C@H]1C(=O)N2C(C(=O)O)=C(S[C@@H]3CN[C@H](C(=O)N(C)C)C3)[C@H](C)[C@H]12 | microdialysis | pig (Danish Landrace), subcutaneous adipose tissue | iv infusion, 1000 mg over 10 min, MIC 0.25 µg/mL, together with: vancomycin co-administered |  | time above MIC | 311 min
Cn1c(-c2ccc(C(N)=O)cc2F)nnc1C(C)(C)Oc1c(F)cc(Cl)cc1F |  | young non-Japanese healthy subjects, plasma | oral, 0.2 mg once daily, 3 mg loading day 1, median, last dosing day |  | apparent volume of distribution Vz/F | 2000 L
COc1ccc2c(c1)c(CC(=O)O)c(C)n2C(=O)c1ccc(Cl)cc1 | shake-flask | Captex 355 | 37 °C |  | thermodynamic solubility | 4.8 ± 0.34 mg/g
CC[C@H](C)[C@@H]1NC(=O)[C@H](Cc2ccc(O)cc2)NC(=O)[C@@H](N)CSSC[C@@H](C(=O)N2CCC[C@H]2C(=O)N[C@@H](CC(C)C)C(=O)NCC(N)=O)NC(=O)[C@H](CC(N)=O)NC(=O)[C@H](CCC(N)=O)NC1=O | microdialysis, radioimmunoassay | C57BL/6J male mice, wild type, amygdala extracellular fluid | intranasal, 12 µg, 2 h after dosing, i=1,2,6,30 |  | Cmax | 5.74 ± 1.38 pg/sample
COc1cc(C)c(/C=C/C(C)=C/C=C/C(C)=C/C(=O)O)c(C)c1C | shake-flask | soybean oil | 37 °C |  | thermodynamic solubility | 0.12 ± 0.01 mg/g
Cn1cc(-c2cnc3cnn(S(=O)(=O)c4cnc5ccc(-c6cnn(C)c6)cn45)c3c2)cn1 |  | healthy Chinese men, plasma | oral, 300 mg single dose, high-fat meal |  | apparent volume of distribution | 193 L
CCCCCCCCC[C@H](O)CC(=O)CCc1ccc(O)c(OC)c1 |  | rat, small intestine site 4 contents | oral, dose not given, 4 h, no β-glucuronidase treatment | baseline: ingested amount | recovery | 3.51%
CCCC[C@H](NC(C)=O)C(=O)N[C@H]1CCC(=O)NC[C@@H](C(=O)N[C@@H](Cc2c[nH]c3ccccc23)C(N)=O)NC(=O)[C@H](CCCNC(=N)N)NC(=O)[C@@H](Cc2ccccc2)NC(=O)[C@H](Cc2c[nH]cn2)NC1=O |  | beagle dog, female, plasma | subcutaneous, 1.5 mg/kg daily, day 14 |  | AUC(0-last) | 258 ng·h/mL
O=c1c(-c2ccc(O)cc2)coc2cc(O)cc(O)c12 | mass spectrometry | Caco-2 | 40 µM, 6 h |  | Papp A→B | 11.9 ×10⁻⁶ cm/s
CC(C)=CCC[C@](C)(O[C@@H]1O[C@H](CO)[C@@H](O)[C@H](O)[C@H]1O)[C@H]1CC[C@]2(C)[C@@H]1[C@H](O)C[C@@H]1[C@@]3(C)CC[C@H](O[C@@H]4O[C@H](CO)[C@@H](O)[C@H](O)[C@H]4O)C(C)(C)[C@@H]3CC[C@]12C | LC-MS/MS | healthy female volunteers, serum | oral, 3 g fermented red ginseng |  | AUC(0-inf) | 23.1 ± 16.7 ng·h/mL
COc1cc(/C=C/c2ccc(N)cc2)cc(OC)c1 |  | rat, mammary gland | oral, 40 mg/kg daily for three days, 24 h, total, pooled |  | concentration | 510 ± 10 ng/g
